Assay results pooled from the literature.
Protocols differ between the studies behind these lines. “And” joins repeats or separate records; there may be more than shown.
Target: Receptor tyrosine-protein kinase erbB-4 (ERBB4, Homo sapiens, UniProt Q15303)
UniProt Q15303, sequence (whole entry, looked up): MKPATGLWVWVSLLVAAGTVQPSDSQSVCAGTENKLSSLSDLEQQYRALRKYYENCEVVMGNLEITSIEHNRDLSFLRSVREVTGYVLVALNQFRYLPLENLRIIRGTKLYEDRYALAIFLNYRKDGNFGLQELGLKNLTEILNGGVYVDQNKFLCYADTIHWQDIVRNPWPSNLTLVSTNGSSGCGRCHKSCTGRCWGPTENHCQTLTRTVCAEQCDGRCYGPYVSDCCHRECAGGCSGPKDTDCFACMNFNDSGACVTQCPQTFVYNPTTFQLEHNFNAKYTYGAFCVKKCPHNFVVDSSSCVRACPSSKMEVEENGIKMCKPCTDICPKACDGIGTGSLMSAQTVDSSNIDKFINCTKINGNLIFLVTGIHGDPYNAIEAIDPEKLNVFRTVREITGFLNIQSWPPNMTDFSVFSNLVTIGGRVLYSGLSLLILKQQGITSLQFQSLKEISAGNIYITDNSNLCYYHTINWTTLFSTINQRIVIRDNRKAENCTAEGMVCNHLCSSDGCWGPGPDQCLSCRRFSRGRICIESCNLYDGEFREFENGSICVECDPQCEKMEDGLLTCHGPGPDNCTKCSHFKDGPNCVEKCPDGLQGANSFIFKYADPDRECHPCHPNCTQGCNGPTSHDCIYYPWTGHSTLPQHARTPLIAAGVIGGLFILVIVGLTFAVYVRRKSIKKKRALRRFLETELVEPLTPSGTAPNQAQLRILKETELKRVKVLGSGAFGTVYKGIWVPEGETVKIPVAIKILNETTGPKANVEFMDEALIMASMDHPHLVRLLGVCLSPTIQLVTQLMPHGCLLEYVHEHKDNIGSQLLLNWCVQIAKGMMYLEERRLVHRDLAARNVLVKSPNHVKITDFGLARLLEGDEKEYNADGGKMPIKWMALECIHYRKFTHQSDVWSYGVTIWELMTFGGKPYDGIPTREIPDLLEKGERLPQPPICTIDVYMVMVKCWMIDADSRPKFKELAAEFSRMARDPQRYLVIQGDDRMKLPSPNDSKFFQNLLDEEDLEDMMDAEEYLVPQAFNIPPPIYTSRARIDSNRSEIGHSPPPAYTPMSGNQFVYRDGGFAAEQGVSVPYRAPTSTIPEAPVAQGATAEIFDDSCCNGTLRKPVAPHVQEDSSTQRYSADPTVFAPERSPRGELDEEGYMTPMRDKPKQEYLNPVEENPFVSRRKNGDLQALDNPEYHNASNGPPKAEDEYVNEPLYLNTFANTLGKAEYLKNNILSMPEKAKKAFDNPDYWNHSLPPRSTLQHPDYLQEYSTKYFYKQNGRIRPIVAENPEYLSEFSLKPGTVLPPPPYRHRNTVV

Structure (SMILES) | assay | setting | scale | endpoint | value
CN1CCN(Cc2ccc(NC(=O)c3cccc(C#Cc4cnc(N)c5ncccc45)c3)cc2C(F)(F)F)CC1 | cell-free assay, competition with immobilised ligand | 50 nM | – | remaining binding | 53%
Cc1cccc(O[C@H]2CCC[C@@H](C(C)CNCc3ccncc3)C2)c1 (relative stereo) | enzyme activity, inhibitor | 10 µM | – | inhibition | 1%
O=C(Nc1ccc(Oc2ncnc3[nH]cc(-c4ccccc4)c23)c(F)c1)c1c2n(n(-c3cc(F)ccc3F)c1=O)CCCC2 | enzyme activity, inhibitor | 0.5 µM | – | inhibition | 19%
CC(C)=CC1OC(C)(C)C2C=C3C(=O)C(Cl)=CC(O)C3C3C(O)C4OC4C(=O)C132 (stereo not drawn) | cell-free assay, competition with immobilised ligand | 10 µM | – | remaining binding | 91%
COc1cc(Nc2nccc(-c3cnn4nc(OC)ccc34)n2)cc(C(F)(F)F)c1 | binding, competition with immobilised ligand | 1 µM | – | remaining binding | 93%
C=CC(=O)N1CCc2ccc(-n3c(=O)ccc4cnc5ccc(-c6cnn(C)c6)cc5c43)cc21 | KINOMEscan | 1 µM | relative to: DMSO control | remaining binding | 78%
C=C1CCCCCCCCCC(CO)C1=O (stereo not drawn) | cell-free assay, competition with immobilised ligand | 10 µM | – | remaining binding | 91%
COc1ccc(NC(=O)Nc2ccc3c(c2)C(=O)N(C(C)CO)CC(C)C(CN(C)Cc2ccc4c(c2)OCO4)O3)cc1 (stereo not drawn) | binding, competition with immobilised ligand | 10 µM | – | remaining binding | 97%
CNS(=O)(=O)Nc1nccc(Cc2c(C)c3ccc(Oc4ncccc4F)cc3oc2=O)c1F | binding, competition with immobilised ligand | 10 µM | – | remaining binding | 95%
CCN1CCN(Cc2ccc(NC(=O)c3ccc(C)c(NC(=O)c4cncc(-c5cccs5)c4)c3)cc2C(F)(F)F)CC1 | binding, competition with immobilised ligand | 1 µM | – | remaining binding | 1.9%
Cc1nc2c(F)cc(-c3nc(Nc4ccc(CNC(=O)CCCCCCC(=O)NO)cc4)ncc3F)cc2n1C(C)C | enzyme activity, inhibitor | 1 µM | – | inhibition | 36%
Nc1ncc(-c2cc(-c3cnn(CC(F)(F)F)c3)ncc2F)nc1C(=O)NC1CNCC(F)C1 (stereo not drawn) | enzyme activity | 1 µM | relative to: DMSO control | remaining activity | 96.7%
CNC(=O)C[C@H](Cc1ccc(C#N)cc1)NC(=O)c1cc(-c2ccc(CN[C@H](C)c3ccc(C)cc3)o2)ccc1Cl | enzyme activity, inhibitor | 1 µM | – | activity vs control | 99%
Cc1cnc2nc1Nc1cccc(c1)COC/C=C/COCc1cc(ccc1OCCN1CCOCC1)N2 | binding | 0.1 µM | – | remaining binding | 81%
O=C=[N][Ru-4]123([n]4c5ccc(O)cc5c5c6c(c7cc(F)c[n+]1c7c54)C(=O)NC6=O)[S+]1CC[S+]2CC[S+]3CC1 (stereo not drawn) | enzyme activity | 100 nM, human enzyme, added: 10 µM ATP | relative to: untreated | remaining activity | 111%
C=CC(=O)Nc1cccc(-c2cnc3[nH]cc(C(=O)NC(C)(C)C)c3n2)c1 | enzyme activity, inhibitor | 0.1 µM | – | inhibition | 4%
NC(=O)[C@@H](O)C[C@H]1CCc2sc3ncnc(O[C@H]4CC[C@H](N5CCOCC5)CC4)c3c21 | enzyme activity, inhibitor | 10 µM | – | inhibition | 26%
COCC12C(=O)NC3C4(C(OC)CC1O)C1CC5(O)C(OC)C(O)C(OC(C)=O)(C1C5OC(=O)c1ccccc1)C3(O)C(OC)C24 (stereo not drawn) | kinase activity, inhibitor, ProQinase kinase profiling | 25 µM | relative to: control | remaining activity | 116% and 111%
C=CC(=O)N1CCCC(n2c(=O)c3ncccc3n(Cc3ccc(Oc4ccccc4)cc3)c2=O)C1 (stereo not drawn) | cell-free assay, competition with immobilised ligand | 1 µM | – | remaining binding | 90%
COc1cc(OC)c(F)c(/C=C/c2cnc3ccn(S(=O)(=O)c4cn(CCF)cn4)c3n2)c1F | – | 1000 nM | – | inhibition | 9.2%
CCN1CCN(Cc2ccc(C(=O)Nc3ccc(C)c(NCc4cnc5[nH]ccc5c4OC)c3)cc2C(F)(F)F)CC1 | binding, competition with immobilised ligand | 1 µM | – | remaining binding | 0.75%
